Published values of several laboratories.
Numbered parts are unrelated; each lists some results of a single study.
UniProt Q9NWZ3, sequence (whole entry, looked up): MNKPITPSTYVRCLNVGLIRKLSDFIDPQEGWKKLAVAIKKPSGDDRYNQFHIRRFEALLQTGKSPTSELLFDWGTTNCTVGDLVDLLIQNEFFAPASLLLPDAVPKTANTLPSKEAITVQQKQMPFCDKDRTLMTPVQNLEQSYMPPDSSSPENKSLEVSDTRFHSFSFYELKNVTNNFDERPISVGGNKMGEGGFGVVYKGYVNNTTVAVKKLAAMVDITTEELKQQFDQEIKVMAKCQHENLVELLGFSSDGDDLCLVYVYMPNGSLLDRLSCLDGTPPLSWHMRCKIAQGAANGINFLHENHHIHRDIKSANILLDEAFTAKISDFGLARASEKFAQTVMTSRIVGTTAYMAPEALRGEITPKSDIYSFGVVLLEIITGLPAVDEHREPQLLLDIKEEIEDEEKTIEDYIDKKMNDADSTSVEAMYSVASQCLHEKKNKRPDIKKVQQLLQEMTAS
UniProt Q6PHR2, sequence (whole entry, looked up): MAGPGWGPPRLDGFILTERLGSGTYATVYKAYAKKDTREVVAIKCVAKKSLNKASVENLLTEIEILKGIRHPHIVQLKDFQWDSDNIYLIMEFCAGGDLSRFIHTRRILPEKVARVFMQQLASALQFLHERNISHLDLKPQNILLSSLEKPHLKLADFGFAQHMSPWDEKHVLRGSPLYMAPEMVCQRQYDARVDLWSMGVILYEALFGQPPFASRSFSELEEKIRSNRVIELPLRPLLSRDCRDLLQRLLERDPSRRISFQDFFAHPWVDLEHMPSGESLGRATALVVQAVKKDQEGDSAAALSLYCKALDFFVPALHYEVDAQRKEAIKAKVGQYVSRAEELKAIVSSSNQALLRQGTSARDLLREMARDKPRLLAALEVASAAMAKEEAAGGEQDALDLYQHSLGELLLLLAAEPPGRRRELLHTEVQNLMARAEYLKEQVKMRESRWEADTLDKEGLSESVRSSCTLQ
UniProt Q5S007, sequence (whole entry, looked up): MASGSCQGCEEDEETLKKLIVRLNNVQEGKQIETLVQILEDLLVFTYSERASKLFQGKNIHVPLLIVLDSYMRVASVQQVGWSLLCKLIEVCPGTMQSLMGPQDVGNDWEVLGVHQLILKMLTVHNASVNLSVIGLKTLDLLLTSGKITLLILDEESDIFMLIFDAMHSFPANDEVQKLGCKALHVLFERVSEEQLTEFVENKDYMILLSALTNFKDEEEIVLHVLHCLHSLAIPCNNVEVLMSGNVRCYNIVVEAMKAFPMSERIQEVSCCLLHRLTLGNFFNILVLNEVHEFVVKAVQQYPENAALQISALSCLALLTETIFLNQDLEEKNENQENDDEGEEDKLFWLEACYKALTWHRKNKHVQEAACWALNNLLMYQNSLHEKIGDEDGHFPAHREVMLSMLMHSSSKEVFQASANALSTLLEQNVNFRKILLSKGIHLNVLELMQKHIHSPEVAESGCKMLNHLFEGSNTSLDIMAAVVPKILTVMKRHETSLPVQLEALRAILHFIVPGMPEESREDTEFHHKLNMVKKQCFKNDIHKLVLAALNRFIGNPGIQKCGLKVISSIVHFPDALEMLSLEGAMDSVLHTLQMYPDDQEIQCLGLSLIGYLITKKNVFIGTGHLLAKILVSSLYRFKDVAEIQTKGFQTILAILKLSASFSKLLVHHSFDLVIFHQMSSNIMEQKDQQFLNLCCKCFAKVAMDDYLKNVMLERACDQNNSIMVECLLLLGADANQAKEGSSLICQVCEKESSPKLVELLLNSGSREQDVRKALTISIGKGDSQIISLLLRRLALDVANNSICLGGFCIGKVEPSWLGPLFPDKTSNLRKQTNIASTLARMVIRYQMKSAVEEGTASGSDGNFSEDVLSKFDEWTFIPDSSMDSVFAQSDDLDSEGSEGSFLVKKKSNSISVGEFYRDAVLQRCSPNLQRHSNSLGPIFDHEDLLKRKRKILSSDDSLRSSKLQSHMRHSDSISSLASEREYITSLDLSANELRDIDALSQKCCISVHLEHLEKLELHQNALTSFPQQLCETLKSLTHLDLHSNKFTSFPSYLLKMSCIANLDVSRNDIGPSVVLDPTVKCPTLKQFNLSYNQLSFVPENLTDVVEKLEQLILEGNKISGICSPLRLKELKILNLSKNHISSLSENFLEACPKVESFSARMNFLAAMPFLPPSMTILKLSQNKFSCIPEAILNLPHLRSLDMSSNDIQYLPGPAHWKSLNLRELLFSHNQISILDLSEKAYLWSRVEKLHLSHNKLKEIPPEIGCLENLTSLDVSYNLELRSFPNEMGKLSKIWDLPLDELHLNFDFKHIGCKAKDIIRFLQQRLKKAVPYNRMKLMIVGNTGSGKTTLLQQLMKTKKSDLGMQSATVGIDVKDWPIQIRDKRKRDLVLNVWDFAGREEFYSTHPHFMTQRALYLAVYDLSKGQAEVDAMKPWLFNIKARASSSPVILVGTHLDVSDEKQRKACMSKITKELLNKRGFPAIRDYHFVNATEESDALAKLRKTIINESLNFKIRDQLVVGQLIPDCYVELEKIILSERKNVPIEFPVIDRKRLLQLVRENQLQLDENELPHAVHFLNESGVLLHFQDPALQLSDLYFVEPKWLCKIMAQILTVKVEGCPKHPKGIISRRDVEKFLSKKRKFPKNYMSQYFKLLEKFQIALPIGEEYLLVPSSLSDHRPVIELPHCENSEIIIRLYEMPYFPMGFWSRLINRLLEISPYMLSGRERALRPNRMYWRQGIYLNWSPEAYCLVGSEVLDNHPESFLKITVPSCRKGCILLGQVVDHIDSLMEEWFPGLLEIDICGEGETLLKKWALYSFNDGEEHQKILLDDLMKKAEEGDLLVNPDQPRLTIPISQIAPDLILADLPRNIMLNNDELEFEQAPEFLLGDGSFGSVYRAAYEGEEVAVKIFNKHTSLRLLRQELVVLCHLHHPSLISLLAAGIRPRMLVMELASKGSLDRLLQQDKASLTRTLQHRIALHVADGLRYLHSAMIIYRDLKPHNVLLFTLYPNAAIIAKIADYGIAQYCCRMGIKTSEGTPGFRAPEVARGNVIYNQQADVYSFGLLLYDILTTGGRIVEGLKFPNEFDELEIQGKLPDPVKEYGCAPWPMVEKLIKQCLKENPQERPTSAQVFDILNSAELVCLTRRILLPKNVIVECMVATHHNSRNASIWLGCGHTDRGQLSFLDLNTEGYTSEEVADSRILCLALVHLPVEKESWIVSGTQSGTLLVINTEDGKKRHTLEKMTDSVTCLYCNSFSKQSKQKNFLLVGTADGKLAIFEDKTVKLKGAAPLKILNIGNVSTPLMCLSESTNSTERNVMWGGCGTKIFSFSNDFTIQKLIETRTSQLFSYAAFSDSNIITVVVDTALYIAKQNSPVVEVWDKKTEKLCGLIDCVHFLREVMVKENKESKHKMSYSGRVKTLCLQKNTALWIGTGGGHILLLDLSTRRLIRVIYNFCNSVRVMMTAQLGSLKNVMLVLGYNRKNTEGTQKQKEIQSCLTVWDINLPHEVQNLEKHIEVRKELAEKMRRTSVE
UniProt P68400, sequence (whole entry, looked up): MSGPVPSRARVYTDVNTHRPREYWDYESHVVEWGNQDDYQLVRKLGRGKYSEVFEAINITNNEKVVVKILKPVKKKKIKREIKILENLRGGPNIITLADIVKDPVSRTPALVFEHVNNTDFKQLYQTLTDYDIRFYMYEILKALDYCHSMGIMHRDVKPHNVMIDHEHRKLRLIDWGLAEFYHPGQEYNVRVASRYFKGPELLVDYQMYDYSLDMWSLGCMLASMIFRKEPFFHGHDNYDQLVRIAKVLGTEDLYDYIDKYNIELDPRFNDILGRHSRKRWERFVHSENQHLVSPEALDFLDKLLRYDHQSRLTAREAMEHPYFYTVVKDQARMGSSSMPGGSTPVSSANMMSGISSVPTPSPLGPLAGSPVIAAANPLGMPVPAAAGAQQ

Block 1
Structure (SMILES): CN(C)CC#Cc1ccc(OCCCc2sc(N3CCc4cccc(C(=O)Nc5nc6ccccc6s5)c4C3)nc2C(=O)O)c(F)c1
Effect on: cell-free assay
Method: competition with immobilised ligand
Tested at: 1 µM
For NUAK2 (Homo sapiens, UniProt Q9H093): remaining binding read 82%.
The remaining binding was 100% (TBK1 (Homo sapiens, UniProt Q9UHD2)).
EGFR (Homo sapiens, UniProt P00533) — remaining binding: 87%.
The remaining binding was 75% (Non-receptor tyrosine-protein kinase TYK2, JH2 (TYK2, Homo sapiens, UniProt P29597)).
For STK33 (Homo sapiens, UniProt Q9BYT3): remaining binding read 100%.
ULK3 (Homo sapiens, UniProt Q6PHR2) — remaining binding: 100%.
MST1R (Homo sapiens, UniProt Q04912) — remaining binding: 99%.
The remaining binding was 96% (PAK4 (Homo sapiens, UniProt O96013)).
It gave 100% for remaining binding (MAP2K5 (Homo sapiens, UniProt Q13163)).
It gave 100% for remaining binding (RPS6KB1 (Homo sapiens, UniProt P23443)).
The remaining binding was 97% (Tyrosine-protein kinase JAK1, JH1 (JAK1, Homo sapiens, UniProt P23458)).
It gave 96% for remaining binding (MAP4K4 (Homo sapiens, UniProt O95819)).
It gave 88% for remaining binding (MINK1 (Homo sapiens, UniProt Q8N4C8)).
The remaining binding was 91% (PIM3 (Homo sapiens, UniProt Q86V86)).
For ITK (Homo sapiens, UniProt Q08881): remaining binding read 100%.
It gave 100% for remaining binding (ACVR1 (Homo sapiens, UniProt Q04771)).

Block 2
Target: Calcium/calmodulin-dependent protein kinase type II subunit alpha (CAMK2A, Homo sapiens, UniProt Q9UQM7)
UniProt Q9UQM7, sequence (whole entry, looked up): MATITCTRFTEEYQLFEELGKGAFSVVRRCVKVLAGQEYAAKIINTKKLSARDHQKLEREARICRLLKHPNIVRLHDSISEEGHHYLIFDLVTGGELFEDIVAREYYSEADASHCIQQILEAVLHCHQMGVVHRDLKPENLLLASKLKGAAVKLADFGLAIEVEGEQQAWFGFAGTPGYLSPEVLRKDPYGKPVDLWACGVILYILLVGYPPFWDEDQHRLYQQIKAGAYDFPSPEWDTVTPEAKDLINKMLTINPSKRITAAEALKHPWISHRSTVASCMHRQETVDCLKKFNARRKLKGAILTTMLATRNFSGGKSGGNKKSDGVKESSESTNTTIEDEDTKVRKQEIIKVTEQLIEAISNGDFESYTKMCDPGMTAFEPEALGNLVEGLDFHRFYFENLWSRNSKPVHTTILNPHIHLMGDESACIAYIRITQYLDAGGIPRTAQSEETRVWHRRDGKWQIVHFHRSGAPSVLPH
Effect on: enzyme activity
Mode: inhibitor
Tested at: 10 µM
The inhibition of C[C@@H]1O[C@@H](O[C@H]2[C@H](O[C@H]3CC[C@]4(C)[C@H]5CC=C6[C@@H]7CC(C)(C)CC[C@]7(C(=O)O)CC[C@@]6(C)[C@]5(C)CC[C@H]4C3(C)C)OC[C@H](O[C@@H]3O[C@H](CO)[C@@H](O)[C@H](O)[C@H]3O)[C@@H]2O)[C@H](O)[C@H](O)[C@H]1O is reported as -17%.
Cn1cc(C(=O)[C@@H]2CCc3nc[nH]c3C2)c2ccccc21 gave an inhibition of -10%.
For CCCCN(CCCC)CC(O)c1cc(Cl)cc2c1-c1ccc(Cl)cc1/C2=C/c1ccc(Cl)cc1 (centres unmarked), the inhibition was -1%.
For O=C(O[C@@H]1Cc2c(O)cc(O)cc2O[C@@H]1c1ccc(O)c(O)c1)c1cc(O)c(O)c(O)c1, the inhibition was -37%.
C[C@H](CS)C(=O)N1CCC[C@H]1C(=O)O gave an inhibition of -9%.
CCCC(=O)OCOC(=O)C1=C(C)NC(C)=C(C(=O)OC)C1c1cccc(Cl)c1Cl (centres unmarked) has an inhibition of 6%.
CC(=O)NCCc1ccc(O)c(O)c1 gave an inhibition of -25%.
C[C@H](O)[C@H](O)c1cnc2nc(N)[nH]c(=O)c2n1 gave an inhibition of -6%.
With COc1cc(O)c2c(=O)cc(-c3ccc(O)c(OC)c3)oc2c1 the inhibition was -16%.
O=Cc1c[nH]c2cccc(O)c12 has an inhibition of -82%.
OCC(CO)N[C@H]1C[C@](O)(CO)[C@@H](O)[C@H](O)[C@H]1O has an inhibition of 15%.
For O[C@H]([C@H](O)[C@@H]1CO1)[C@H]1CO1, the inhibition was -4%.
C[C@H]1[C@H](C)CC[C@]2(C(=O)O)CC[C@]3(C)C(=CC[C@@H]4[C@@]5(C)C[C@@H](O)[C@H](O)[C@@](C)(CO)[C@@H]5CC[C@]43C)[C@H]12 gave an inhibition of -10%.
For CN(Cc1cc(Br)cc(Br)c1N)C1CCCCC1, the inhibition was -4%.
With C=C1C(=O)O[C@@H]2C[C@@]3(C)CCC[C@H](C)C3=C[C@H]12 the inhibition was 15%.
With CCCCCC/C=C\CCCCCCCC(=O)O the inhibition was 33%.
For CCn1cc(C(=O)O)c(=O)c2cc(F)c(N3CCNCC3)cc21, the inhibition was -5%.
With Oc1nc(O)c2nc(O)[nH]c2n1 the inhibition was -5%.

Block 3
SMILES: O=C(c1ccccc1)c1ccc(N2CCOCC2)cc1O
Effect on: enzyme activity
Mode: inhibitor
Tested at: 0.5 µM
Relative to: control
CHEK1 (Homo sapiens, UniProt O14757) — remaining activity: 108%.
WNK2 (Homo sapiens, UniProt Q9Y3S1) — remaining activity: 100%.
For KIT (Homo sapiens, UniProt P10721): remaining activity read 96.2%.
For Cyclin-dependent kinase 9, with cyclin T1 (CDK9, Homo sapiens, UniProt P50750): remaining activity read 97.9%.
It gave 100% for remaining activity (MAPK12 (Homo sapiens, UniProt P53778)).
It gave 98.8% for remaining activity (PRKCD (Homo sapiens, UniProt Q05655)).
CSNK1A1 (Homo sapiens, UniProt P48729) — remaining activity: 110%.
PRKCI (Homo sapiens, UniProt P41743) — remaining activity: 98.3%.
For MKNK2 (Homo sapiens, UniProt Q9HBH9): remaining activity read 90.6%.
It gave 93.5% for remaining activity (MAP2K6 (Homo sapiens, UniProt P52564)).
It gave 95.4% for remaining activity (LRRK2 (Homo sapiens, UniProt Q5S007)).
EPHA5 (Homo sapiens, UniProt P54756) — remaining activity: 112%.
It gave 97.7% for remaining activity (NEK4 (Homo sapiens, UniProt P51957)).
For MAPK13 (Homo sapiens, UniProt O15264): remaining activity read 106%.
It gave 100% for remaining activity (MAP3K10 (Homo sapiens, UniProt Q02779)).
BTK (Homo sapiens, UniProt Q06187) — remaining activity: 103%.
For MAP4K2 (Homo sapiens, UniProt Q12851): remaining activity read 116%.
PLK2 (Homo sapiens, UniProt Q9NYY3) — remaining activity: 111%.
It gave 105% for remaining activity (LYN (Homo sapiens, UniProt P07948)).
The remaining activity was 91.1% (CSNK2A1 (Homo sapiens, UniProt P68400)).
IRAK4 (Homo sapiens, UniProt Q9NWZ3) — remaining activity: 108%.
For AKT3 (Homo sapiens, UniProt Q9Y243): remaining activity read 105%.

Block 4
Target: Eukaryotic initiation factor 4A-III (Homo sapiens, UniProt P38919)
UniProt P38919, sequence (whole entry, looked up): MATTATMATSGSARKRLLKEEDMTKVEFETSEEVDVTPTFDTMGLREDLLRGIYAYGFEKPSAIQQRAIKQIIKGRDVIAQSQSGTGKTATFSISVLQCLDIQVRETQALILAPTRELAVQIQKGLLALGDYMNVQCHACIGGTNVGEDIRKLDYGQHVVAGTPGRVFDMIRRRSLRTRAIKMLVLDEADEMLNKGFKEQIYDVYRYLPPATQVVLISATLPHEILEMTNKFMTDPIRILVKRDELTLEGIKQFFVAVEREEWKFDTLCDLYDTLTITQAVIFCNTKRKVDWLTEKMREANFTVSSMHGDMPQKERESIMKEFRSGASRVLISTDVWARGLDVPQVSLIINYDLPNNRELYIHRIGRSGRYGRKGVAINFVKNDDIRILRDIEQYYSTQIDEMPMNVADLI
Effect on: RNA clamping
Method: fluorescence polarization
Tested at: concentration not given
Setting: mean of two replicates
Added: FAM-labelled poly r(AG)8 RNA
Under “fluorescence polarization change”, COC(=O)[C@H]1[C@@H](O)[C@@]2(O)c3c(OC)cc(OC)cc3N(C)[C@@]2(c2ccc(Br)cc2)[C@@H]1c1ccccc1 is recorded as 8.4 mP.
For COc1ccc([C@@]23Oc4cc(OC)cc(OC)c4[C@]2(O)[C@H](O)[C@H](C(=O)NOCc2ccccc2)[C@H]3c2ccccc2)cc1, “fluorescence polarization change” read 5.2 mP.
CO/N=C(\c1ccco1)[C@H]1[C@@H](O)[C@@]2(O)c3c(OC)cc(OC)cc3O[C@@]2(c2ccc(OC)cc2)[C@@H]1c1ccccc1 — result for “fluorescence polarization change”: 7.3 mP.
For COC(=O)C1=C(c2ccccc2)[C@]2(c3ccc(OC)cc3)Oc3cc(OC)cc(OC)c3[C@]2(O)C1=O, “fluorescence polarization change” read 10.6 mP.
COc1ccc([C@@]23Oc4cc(OC)c(Cl)c(OC)c4[C@]2(O)c2nc4n(c(=O)c2[C@H]3c2ccccc2)CCC4)cc1 — result for “fluorescence polarization change”: 16 mP.
COC(=O)[C@H]1[C@@H](O)[C@@]2(O)c3c(OC)cc(OS(=O)(=O)c4ccc(C)cc4)cc3O[C@@]2(c2ccc(OC)cc2)[C@@H]1c1ccccc1: “fluorescence polarization change” 4.4 mP.
Under “fluorescence polarization change”, COc1ccc([C@@]23Oc4cc(OC)cc(OC)c4[C@]2(O)c2nc(-c4ccccn4)[nH]c(=O)c2[C@H]3c2ccccc2)cc1 is recorded as 10.2 mP.
COC(=O)C1=C(OS(=O)(=O)c2ccc(C)cc2)[C@@]2(O)c3c(OC)cc(OC)cc3O[C@@]2(c2ccc(OC)cc2)[C@@H]1c1ccccc1: “fluorescence polarization change” 3.5 mP.
Under “fluorescence polarization change”, CCCN(CCC)[C@@]12C(=O)[C@H](C(=O)OC)[C@@H](c3ccccc3)[C@]1(c1ccc(OC)cc1)Oc1cc(OC)cc(OC)c12 is recorded as 3.4 mP.
For C#CCOc1cc(OC)c2c(c1)O[C@@]1(c3ccc(OC)cc3)[C@H](c3ccccc3)c3c(nc(-c4ccccc4)[nH]c3=O)[C@@]21O, “fluorescence polarization change” read 1.5 mP.
COc1ccc([C@@]23Oc4cc(OC)cc(OC)c4[C@]2(O)c2nc(-c4ccccc4)nc(OC)c2[C@H]3c2ccccc2)cc1: “fluorescence polarization change” 5.8 mP.
Under “fluorescence polarization change”, COc1ccc([C@@]23Oc4cc(OC)cc(OC)c4[C@]2(O)[C@@H](O)[C@H](C(=O)c2ccco2)[C@H]3c2ccccc2)cc1 is recorded as 18.5 mP.
